Published values collected from several papers.
Each numbered part is a random draw from the data of one study; scales do not carry over between parts. Several values in a cell are separate wells, animals, samples, runs or records.

Block 1
Target: RING finger protein unkempt homolog, zinc fingers 1-6, SBP tag (UNK, Homo sapiens, UniProt Q9C0B0, residues 30-357)
Chain of UniProt Q9C0B0 (30-357, looked up): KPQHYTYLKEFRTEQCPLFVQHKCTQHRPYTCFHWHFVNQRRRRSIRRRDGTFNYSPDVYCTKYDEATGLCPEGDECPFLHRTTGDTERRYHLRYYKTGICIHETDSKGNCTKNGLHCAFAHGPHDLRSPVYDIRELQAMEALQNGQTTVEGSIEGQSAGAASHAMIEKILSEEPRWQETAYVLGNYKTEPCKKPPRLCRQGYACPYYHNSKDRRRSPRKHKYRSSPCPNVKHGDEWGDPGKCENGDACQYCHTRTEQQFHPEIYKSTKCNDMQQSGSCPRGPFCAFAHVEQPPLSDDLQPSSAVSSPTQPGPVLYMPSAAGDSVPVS
Technique: RNA Bind-n-Seq
Form: RNA
Medium: in vitro
Tested at: 100 nM
Notes: RNA with constant flanks, vertebrate orthologous sites, ends assumed
Relative to: input RNA pool
Direction: higher = stronger binding
Sequence	bound/input enrichment
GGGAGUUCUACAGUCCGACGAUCUACAUCUGGUGAUAUUUGGCCUGGCCUUUCAGCUUAUGAUAAUAGUCCAAGGUCACCUCAUAGUCCUUCACCUAUUGCUACCCCACCCAGUCAGAGUUCAUCAUGCUCAGAUGCCCCCAUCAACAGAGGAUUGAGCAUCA	0.831 ratio
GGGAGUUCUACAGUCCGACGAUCCCUGUGCAGCAAUUAGAUAUGCUCCCCCCACCUUUUCUUUCAAGAAAAUAAAUGCCCAAAUAGAUUGCUUACCCAUCUGAUUGUACUGUUCUGGGUUUACUAUUAUUUUUUACGUAUGUGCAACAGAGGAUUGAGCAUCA	1.59 ratio
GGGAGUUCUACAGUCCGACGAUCUAAUUCAAUGGUUGAAGGUUCAGAACUCAAAAAGGUUCGCUCCAACUCUAGAAUUUAUCAUAGGUACUUUUUACUGGAUGCCGACAUGCAGAGCCUAAGGUGGGAGCCAUCUAAGAAGGACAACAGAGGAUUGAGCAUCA	0.279 ratio
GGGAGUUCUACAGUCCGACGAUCCGCUGAUAAUUAGCUUUUUCUCAACGUGAAAUCAAUUAAGGAAAAUGUAAAUGGAGAGCUAAACGUAUUUACUGUGUCAUUCCAUGUGUGCUGGUGUGAAGUGAUUGCCAUCUUCUGUUGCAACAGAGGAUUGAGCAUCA	0.588 ratio
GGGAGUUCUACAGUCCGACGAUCAGUUUUAAGCUUGUUUGCACAGGUUUGUUUUUUUUCCAUUGGAAAUGGAAUCCGUUGCCUUAGGUCUUUUAAAAUAGUGUAUUAUUAUCGUUGGGGCUGGCUCUAUGCUUGAAAACCAGUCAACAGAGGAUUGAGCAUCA	2.16 ratio
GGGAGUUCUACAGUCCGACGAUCACGCUUUGACGUCAAGUUCAACAUCGCCUCGUGACCUCAGCCGCGGCCAGCGCUCACUUUGACACCGACACAAUGUAGAGAGAAUAAAAGAGUUGAGAUAAACACCACUAGUCUUUGAACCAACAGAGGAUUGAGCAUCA	0.28 ratio
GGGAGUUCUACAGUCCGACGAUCGCAUUUUUAUCUCGAUGGUUUUGUUUUUUUAAUUUCUUUCUAGUCCUUUUUUACAUGGUCGUCUGUCUGUCUGUCUGUCACAUUUCCUUCUCAGGCGAAGGGCUAGAGUUAAAAAAAAACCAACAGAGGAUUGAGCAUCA	0.667 ratio
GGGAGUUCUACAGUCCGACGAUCGAAUAUUAAAAAUCUUAAAUUACGCUGAGAUCCAGGCAGGUAUUUUGCAGGGCCAGGCCAUUGGACGGCGUUGCCGCCUUGUCUCGUCAUGUUUUUUUUUGGUUCUUUUUUUCAGAGCUGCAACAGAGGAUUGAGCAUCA	0.554 ratio
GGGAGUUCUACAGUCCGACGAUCAAAUGGCUUCUGCCCCAUUAAGAAGAGUAAAAAUAGUCCCGCAACUAUAAAGCUCCUCAAUAGCUAUUUUUAAAAUAAAAAUGUUUAAAUUUUGUAAAUCACCUGAUGCCACUACACGACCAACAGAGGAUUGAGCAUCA	2.2 ratio
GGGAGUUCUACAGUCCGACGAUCUCCCGGCAGCGCCAGCGCGGGUAGCCACCCUUCUCACACUGCUCUGUCUUUAUUUUAUUUUCCUCAGGACUGACCCUGAGGCUCCAGCUUUUGUGGUUCAUCUCGUAUUUAUUUUAUCUUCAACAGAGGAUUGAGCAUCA	1.31 ratio
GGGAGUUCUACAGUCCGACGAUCCAUUGUACUGCAAAAAUCAUCCUUCUUCUUAAACUAAGCACAGUGAUAACUAGUCUGCACUACUAGAAUCACUUAAUAUUACCUUUCAUUUGCAAUUACCUUUUAAGUGAUCUGUUUGGUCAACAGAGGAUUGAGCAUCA	0.731 ratio

Block 2
Target: Prothrombin, mature alpha-thrombin (F2, Homo sapiens, UniProt P00734)
Technique: aptamer microarray, sandwich
Form: DNA with 2'F-ANA
Medium: in vitro
Tested at: 200 nM
Notes: whole 15-mer aptamer, many near background
With: Cy3 exosite-II aptamer, 400 nM
Direction: higher = stronger binding
Sequence: GGTTGGTGTGGTTGG
Modification	mean fluorescence intensity
2'F-ANA at 3 4 6 8 10 13 15	213 a.u.
2'F-ANA at 4 5 6 8 9 11 12 13	75.8 a.u.
2'F-ANA at 1 2 5 6 8 9 10 13 14 15	49.8 a.u.
2'F-ANA at 2 3 4 7 8 9 11 12 15	780 a.u.
2'F-ANA at 1 2 3 6 8 10 11 12 13	72 a.u.
2'F-ANA at 2 3 4 7 11 13 14 15	302 a.u.
2'F-ANA at 6 8 9 11 12 15	612 a.u.
2'F-ANA at 2 3 5 6 7 8 10 11 12 13	56.1 a.u.
2'F-ANA at 2 6 8 11 12 15	573 a.u.
2'F-ANA at 3 8 10 11 12 13 14 15	401 a.u.
2'F-ANA at 1 2 5 7 8 10 11	47.8 a.u.
2'F-ANA at 1 2 5 7 8 9 11 12 14	50.4 a.u.
2'F-ANA at 1 3 4 7 8 9 10 11 13 14 15	53.2 a.u.

Block 3
Target: Sal-like protein 4, full length isoform A (SALL4, Homo sapiens, UniProt Q9UJQ4, residues 1-1053)
Chain of UniProt Q9UJQ4 (whole entry, looked up): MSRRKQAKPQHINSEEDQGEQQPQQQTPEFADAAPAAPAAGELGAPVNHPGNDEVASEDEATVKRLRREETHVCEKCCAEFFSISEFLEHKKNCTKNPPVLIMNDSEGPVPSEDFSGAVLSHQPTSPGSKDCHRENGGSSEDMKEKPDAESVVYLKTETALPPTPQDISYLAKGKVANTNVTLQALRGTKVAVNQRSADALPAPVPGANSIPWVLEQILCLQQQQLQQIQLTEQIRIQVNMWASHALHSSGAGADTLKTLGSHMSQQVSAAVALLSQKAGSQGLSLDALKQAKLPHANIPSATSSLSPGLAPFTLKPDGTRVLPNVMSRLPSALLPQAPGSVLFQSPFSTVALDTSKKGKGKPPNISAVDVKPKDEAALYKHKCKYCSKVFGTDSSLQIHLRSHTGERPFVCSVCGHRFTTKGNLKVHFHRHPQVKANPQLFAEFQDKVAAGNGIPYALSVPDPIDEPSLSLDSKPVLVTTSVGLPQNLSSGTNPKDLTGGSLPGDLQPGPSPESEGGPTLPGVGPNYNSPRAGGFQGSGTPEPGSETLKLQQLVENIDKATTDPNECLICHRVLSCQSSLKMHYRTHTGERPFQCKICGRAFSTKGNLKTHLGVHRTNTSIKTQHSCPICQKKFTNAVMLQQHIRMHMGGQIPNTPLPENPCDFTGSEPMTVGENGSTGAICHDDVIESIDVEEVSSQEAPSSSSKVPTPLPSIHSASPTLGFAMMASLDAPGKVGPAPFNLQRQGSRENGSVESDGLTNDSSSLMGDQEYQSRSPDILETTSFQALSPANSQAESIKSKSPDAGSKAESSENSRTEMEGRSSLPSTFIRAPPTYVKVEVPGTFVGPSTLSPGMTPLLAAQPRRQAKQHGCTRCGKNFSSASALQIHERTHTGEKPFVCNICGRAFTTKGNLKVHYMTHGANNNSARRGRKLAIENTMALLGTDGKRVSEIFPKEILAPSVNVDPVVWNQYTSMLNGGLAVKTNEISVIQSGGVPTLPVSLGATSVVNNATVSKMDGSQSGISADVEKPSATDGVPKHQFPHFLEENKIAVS
Technique: universal PBM
Form: double-stranded DNA, one strand shown
Medium: in vitro
Tested at: 600 nM
Notes: 8-mer, flanks averaged, mean of replicates
Direction: higher = stronger binding
Sequence	E-score
AGTTCTCA	0.0628
AGGATTTC	-0.0262
GGATACAA	0.0612
CCAACAGA	0.0362
CAAAGCTC	-0.185
AAAGCCCC	-0.341
TCCATAAA	0.306
CGGATTCC	-0.2
AAATGTTC	0.231
ACCCTGTG	-0.187

Single results of other studies
Substance	target	test	test system	conditions	scale	quantity	value
PhoQ, residues 284 288 289 292 302 303 TLMATV	PhoP, residues 12 14 15 18 19 LWHSL (Escherichia coli, UniProt P23836)	Sort-seq, refers to: YFP reporter	E. coli	PhoQ-PhoP variant library, with: 10 µM Mg2+	relative to: high Mg2+ state, higher = stronger signaling	fold induction	1.76 and 2.67

Repeated from above (block 3):
Sequence	E-score
AAAGCCCC	-0.341
CAAAGCTC	-0.185
CCAACAGA	0.0362
TCCATAAA	0.306
